# Assay results pooled from the literature.
# Each numbered part is a random draw from the data of one study; scales do not carry over between parts.

# Block 1
# Target: Histone acetyltransferase KAT6A, both winged helices, GST fusion (KAT6A, Homo sapiens, UniProt Q92794, residues 1-181)
# Technique: protein binding microarray
# Molecule type: double-stranded DNA, one strand shown
# Matrix: in vitro
# Tested at: not given
# Notes: 8-mer, flanks averaged, mean of 2 arrays, mostly near background
# Baseline: not given
# Direction: higher = stronger binding
# Construct (chain): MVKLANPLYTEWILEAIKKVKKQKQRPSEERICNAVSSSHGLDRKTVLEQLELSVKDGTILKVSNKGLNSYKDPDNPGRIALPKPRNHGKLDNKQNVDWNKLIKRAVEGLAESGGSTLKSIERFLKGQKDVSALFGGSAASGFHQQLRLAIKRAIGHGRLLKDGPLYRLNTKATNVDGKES
Oligonucleotide,E-score
CCGGCTTA,0.187
AGTTTCCC,-0.0212
ACCGACGT,0.0617
CAGATAGG,-0.19

# Block 2
# Target: TAR DNA-binding protein 43, full length, His tag (TARDBP, Homo sapiens, UniProt Q13148, residues 1-414)
# Technique: RNA Bind-n-Seq
# Molecule type: RNA
# Matrix: in vitro
# Tested at: 20 nM
# Notes: 6-mer, flanks averaged, single round
# With: 150 mM LiCl
# Baseline: input library
# Direction: higher = stronger binding
Oligonucleotide,6-mer enrichment (R)
GACGAU,0.86
UCUUGC,0.937
AUAAGA,0.971
AUCCUU,0.929
AACCAU,0.86

# Block 3
# Target: RING finger protein unkempt homolog, zinc fingers 1-6, GST-SBP tag (UNK, Homo sapiens, UniProt Q9C0B0, residues 30-357)
# UniProt Q9C0B0, sequence (30-357, looked up): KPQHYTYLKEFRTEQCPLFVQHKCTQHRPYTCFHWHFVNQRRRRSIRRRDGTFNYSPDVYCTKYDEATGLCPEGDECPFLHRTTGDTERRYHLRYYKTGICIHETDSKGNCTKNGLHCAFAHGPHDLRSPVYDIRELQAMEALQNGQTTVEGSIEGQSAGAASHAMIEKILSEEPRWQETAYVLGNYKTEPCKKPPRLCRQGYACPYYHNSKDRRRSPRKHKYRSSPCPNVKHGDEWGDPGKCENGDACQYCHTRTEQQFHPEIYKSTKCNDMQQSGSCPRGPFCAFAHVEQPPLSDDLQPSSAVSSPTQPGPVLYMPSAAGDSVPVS
# Technique: RNA Bind-n-Seq
# Molecule type: RNA
# Matrix: in vitro
# Tested at: not given
# Notes: RNA with constant flanks, human and mouse sites, ends assumed
# Baseline: input RNA pool
# Direction: higher = stronger binding
Oligonucleotide,bound/input enrichment
GGGAGUUCUACAGUCCGACGAUCAAGAGCAGAGGAAAUAACUUUACUGCAAAUCAGAACAAUGAUGAUAAUAUUCCAAACACCACUAGUGACUGCAGGCUGGAGAGUGAGGCCCCCUAUUUGUUGAGUCCAGAGGCUGGGCCUCAACAGAGGAUUGAGCAUCA,0.306 ratio
GGGAGUUCUACAGUCCGACGAUCGGUGCACCUUCAUUUGUUAGAUUAUAUCAGUACCCCAACUUUGCUGGACCUCAUGCAGCUUUAGCUAAUAAAAGUUUCUUUAAGGCAGAUAAAGUUACAAUGCUGUGGAAUAAAAAAGCUCAACAGAGGAUUGAGCAUCA,2.62 ratio
GGGAGUUCUACAGUCCGACGAUCUUCUCAGAUCGUAUUUGUUUUAAGGCCACACCUUUUUGAAGUUUUCAGUUUGAAACACAACCUGGACUGAAAUCAUGAGGGAGGUUGUGUAGGAAAGAAUCAUCAAGGGACUUAGUUGGGCAACAGAGGAUUGAGCAUCA,0.197 ratio

# Single results of other studies
Substance,target,assay,test system,setting,scale,measurement,result
"PhoQ, residues 284 288 289 292 302 303 TASMAF","PhoP, residues 12 14 15 18 19 IQSYL (Escherichia coli, UniProt P23836)","Sort-seq, measured: YFP reporter",E. coli,"PhoQ-PhoP variant library, with: 10 µM Mg2+","baseline: high Mg2+ state, higher = stronger signaling",fold induction,1.07

# Excerpt of the above (block 2):
Oligonucleotide,6-mer enrichment (R)
AACCAU,0.86
UCUUGC,0.937
